# Experimental data pooled from the literature.
# Compare with care: the assays were run in different laboratories.
# Target: D(2) dopamine receptor (DRD2, Homo sapiens, UniProt P14416)
# Sequence of UniProt P14416 (whole entry, looked up): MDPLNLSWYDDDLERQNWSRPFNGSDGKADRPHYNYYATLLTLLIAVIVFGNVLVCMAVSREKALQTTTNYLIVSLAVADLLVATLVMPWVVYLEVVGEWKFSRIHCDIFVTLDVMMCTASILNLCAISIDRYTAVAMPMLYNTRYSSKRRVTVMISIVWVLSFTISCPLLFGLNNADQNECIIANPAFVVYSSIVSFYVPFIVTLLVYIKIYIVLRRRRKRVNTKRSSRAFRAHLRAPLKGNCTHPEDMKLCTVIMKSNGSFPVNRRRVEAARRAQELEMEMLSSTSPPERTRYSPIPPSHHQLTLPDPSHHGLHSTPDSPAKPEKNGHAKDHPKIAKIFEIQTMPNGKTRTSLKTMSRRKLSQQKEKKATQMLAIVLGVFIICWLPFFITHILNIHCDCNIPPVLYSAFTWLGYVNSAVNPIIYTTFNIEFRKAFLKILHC
Compound,test,conditions,how to read,quantity,value
CCN(CC)CCCC[C@H](NC(=O)[C@H](CC(C)C)NC(=O)[C@H](C)NC(=O)[C@H](Cc1ccccc1)NC(=O)c1ccc(C(C)(C)C)cc1)C(=O)N[C@@H](CO)C(=O)OC,"antagonist, radioligand binding",10 µM,baseline: control binding,specific binding,60.5%
CCCC[C@@H](NC(=O)[C@@H](N)Cc1ccc(O)cc1)C(=O)NCC(=O)N[C@@H](Cc1ccc(F)cc1)C(=O)N(C)CCC[C@@]1(c2ccc(F)cc2)OCc2cc(C#N)ccc21,,10 µM,,inhibition,< 50%
CC(C)CC(=O)OC[C@H]1O[C@@](C#N)(c2ccc3c(N)ncnn23)[C@H](O)[C@@H]1O,,20 µM,,inhibition,-2%
CC(C)N1CCC[C@H]1CNC(=O)c1cn(C2CCCC2)c(=O)c2c1c1ccccc1n2C,radioligand binding,10 µM,,inhibition,8%
CN1CCN(c2cc(-c3ccncc3)c(-c3ccc4ccccc4c3)nn2)CC1,"antagonist, FLIPR",10 µM,,inhibition,-2.2%
COCc1c(-c2cc3cc(C)cc(OC)c3s2)c2c(N)ncnn2c1CN1CCNC(=O)C1,"binding, radioligand binding",10 µM,,inhibition,16%
O=c1ccc2ccccc2o1,agonist radioligand binding,"10 µM, SafetyScreen44",,inhibition,-7.44%
Nc1ncc(-c2nc(N3CCOCC3)nc(N3CCOCC3)n2)c(C(F)F)n1,"radioligand binding, agonist ligand",10 µM,,remaining binding,118%
C[C@@H](NC(=O)[C@@H](N)Cc1ccc(O)cc1)C(=O)NCC(=O)N[C@@H](Cc1ccccc1)C(=O)N(C)CCC[C@@]1(c2ccc(F)cc2)OCc2cc(C#N)ccc21,,10 µM,,inhibition,< 50%
Cn1cccc1-c1cccnc1,binding,50 µM,,inhibition,-11.8%
CN[C@]1(c2ccccc2Cl)CCCCC1=O,"radioligand binding, antagonist, radioligand displacement","30 µM, short isoform",,inhibition,7%
